# Measured values collected from several papers.
# Each numbered part is a random draw from the data of one study; scales do not carry over between parts. Changes are numbered by the printed parent chain.

# Sample 1 — technique: DHFR PCA, deep sequencing; sample: yeast; added: (+)-ABA 58 µM; relative to: wild-type fitted maximum; direction: higher = stronger binding
# Target: ABI1, truncated, D143A, DHFR fusion (Arabidopsis thaliana)
# Setting: methotrexate growth selection, single substitutions
# Starting sequence: PYL1, truncated, DHFR fusion (Arabidopsis thaliana); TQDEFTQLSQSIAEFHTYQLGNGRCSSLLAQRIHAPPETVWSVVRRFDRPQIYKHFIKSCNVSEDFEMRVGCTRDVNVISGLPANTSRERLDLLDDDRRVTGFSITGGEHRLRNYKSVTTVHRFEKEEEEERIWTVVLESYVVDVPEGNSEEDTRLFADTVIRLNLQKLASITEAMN
Change,relative binding score [%]
T106L,99
S171Q,84.7
T120P,-4.38
V76R,-5.67
Q51Y,36.8
I105K,-13.6
E139G,2.47
V142E,83.8
R98V,65.3
N22C,84
G21K,94
V161H,14.5

# Sample 2 — technique: protein binding microarray; form: double-stranded DNA, one strand shown; sample: in vitro; tested at: not given; relative to: not given; direction: higher = stronger binding
# Target: Histone acetyltransferase KAT6A, winged helix 1, GST fusion (KAT6A, Homo sapiens, UniProt Q92794, residues 1-85)
# Setting: 8-mer, flanks averaged, mean of 2 arrays, mostly near background
# Residues (chain): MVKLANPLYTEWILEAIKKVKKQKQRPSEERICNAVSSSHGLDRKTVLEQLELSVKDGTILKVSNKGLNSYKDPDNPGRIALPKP
Sequence,E-score
AATTAAGC,0.0533
GTCGCAAA,0.232
GTAAAACA,-0.0872
GACTAACC,-0.16
AGGTCTGG,-0.0541
ATGCTTAA,-0.0171
CGGTGGTC,0.192
GCGTACGC,0.405
ATTTACTA,-0.0677
GCGTACCC,0.224
CGAGGTAA,0.0642
ATATGCAA,-0.115
AGCTATCC,-0.164
ACTGCTCC,-0.0882
CGAGCACG,0.102
AGAAGACC,-0.086
CTCTCCCA,-0.221
AATCTCTA,-0.192
CGCCATTA,0.161
CTAGGGGA,-0.215
AAGTCAAC,-0.269
GACCTCCA,-0.065
GCTAATTA,0.0536
CGCGATAG,0.24
GCATATGA,0.0675

# Sample 3 — technique: RNA Bind-n-Seq; form: RNA; sample: in vitro; tested at: 1 µM; setting: whole 134-nt RNA, ends assumed; added: 150 mM KCl; relative to: input library; direction: higher = stronger binding
# Target: Ras GTPase-activating protein-binding protein 1, RRM domain (G3BP1, Homo sapiens, UniProt Q13283)
# Chain of UniProt Q13283 (whole entry, looked up): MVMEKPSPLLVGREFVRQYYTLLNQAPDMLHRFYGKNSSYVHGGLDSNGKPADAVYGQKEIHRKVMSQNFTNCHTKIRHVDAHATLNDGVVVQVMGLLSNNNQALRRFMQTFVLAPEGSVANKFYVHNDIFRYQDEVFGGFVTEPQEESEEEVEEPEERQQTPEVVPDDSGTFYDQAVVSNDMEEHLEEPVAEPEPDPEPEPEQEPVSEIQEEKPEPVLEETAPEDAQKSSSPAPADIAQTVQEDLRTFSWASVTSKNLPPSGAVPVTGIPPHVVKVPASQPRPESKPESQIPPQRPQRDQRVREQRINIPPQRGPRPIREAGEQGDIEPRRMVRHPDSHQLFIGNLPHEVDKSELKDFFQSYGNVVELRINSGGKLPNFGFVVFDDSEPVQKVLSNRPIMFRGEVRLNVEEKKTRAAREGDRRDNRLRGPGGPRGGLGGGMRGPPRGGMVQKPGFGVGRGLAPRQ
Sequence,log2 enrichment
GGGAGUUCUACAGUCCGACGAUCUCUGAGCAAUUGAAUGCCCUAAACAAGGCUUACCAUGACCUUUGUGAUGGUUCUGCAAAUCAGCUUCAGCAGCUUCAGAGCCAGUUGGCUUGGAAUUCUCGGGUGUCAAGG,-0.396
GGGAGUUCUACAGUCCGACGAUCUGGUGUUCAUAUUGCUGAUGUGAGCCAUUUUAUUAGGCCAGGAAAUGCCUUGGAUCAAGAAUCAGCCAGAAGAGGAACAACUGUGUAUCUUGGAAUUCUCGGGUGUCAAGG,-0.178
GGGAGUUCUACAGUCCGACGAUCUCAAGUCCUGUGCUACACAUCGUAUGUACCGAAUCGGCCCGGCCCGGGCCCGGGAAAGUAUUAUGUUACGCCGUUCGGAUCUGCACUUCCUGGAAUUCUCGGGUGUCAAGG,-0.449
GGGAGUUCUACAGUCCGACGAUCAAGUCGCGUGUCUAGGUGAGUCGCGGUGGGUCCUCGCUUGCAGUUCAGCGACCACGGUGGGUACCGUUUUUGCGAGGAUUGUUUGUCCCCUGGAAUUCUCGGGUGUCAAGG,-0.42
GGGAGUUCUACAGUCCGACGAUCAGUCCUGUGCUACACAUCGUAUGUACCGAAUCGGGGCCCCGGGGCCCCGGCCCCGGGGAAAGUAUUAUGUUACGCCGUUCGGAUCUGCACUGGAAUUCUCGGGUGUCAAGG,-1.28
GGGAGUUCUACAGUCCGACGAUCUGGGAGGUGGAUUUUGUUUAUUUUUUUAGCUCAUUUCCAGGGGUGGGAAUUUGUUUUUAAUAUGUGUCAUGAAUAAAGUUGUUUUUGAAAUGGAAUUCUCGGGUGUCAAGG,1.36
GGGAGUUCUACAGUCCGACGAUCAGUCCUGUGCUACACAUCGUAUGUACCGAAUCGGUUUUUUUGGUUUUUUUGGAAAGGAAAGUAUUAUGUUACGCCGUUCGGAUCUGCACUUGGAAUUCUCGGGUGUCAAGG,-0.288
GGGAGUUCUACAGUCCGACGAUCGCAGGAAGUAAAAACAAAUGGAAAAACUUCGGAUAGUGGCAGGGGUGGGGGUUGCUAAGGAAAGGGUGGGAUGGGAGUGGGUAAAGAGUUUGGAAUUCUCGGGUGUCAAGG,1.21
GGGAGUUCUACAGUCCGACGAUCCUCAAGUCCUGUGCUACACAUCGUAUGUACCGAAUCGGGAAAGGAAAGGAAAGGAAAGUAUUAUGUUACGCCGUUCGGAUCUGCACUUCCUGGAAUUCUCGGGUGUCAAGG,-0.232
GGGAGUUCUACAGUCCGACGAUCUUCCUCAAGUCCUGUGCUACACAUCGUAUGUACCGAAUCGGUGGAGGAGGAAAGUAUUAUGUUACGCCGUUCGGAUCUGCACUUCCAGCAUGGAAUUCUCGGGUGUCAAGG,-0.38
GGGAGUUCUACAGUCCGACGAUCGCUGUUGGAGUGGAUCCGCCGCACAAUCCCGUGGCUGGAGAACCGGGUGCCCGAGAACACCAUGCAUGCCAUGCAACAGAAGCUGGAGGAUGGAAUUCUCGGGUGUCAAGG,-0.225
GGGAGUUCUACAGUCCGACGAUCCUCAAGUCCUGUGCUACACAUCGUAUGUACCGAAUCGGUUGGGGUUGGGUUGGAAAGUAUUAUGUUACGCCGUUCGGAUCUGCACUUCCAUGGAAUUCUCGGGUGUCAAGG,-0.284
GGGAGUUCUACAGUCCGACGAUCAGUCCUGUGCUACACAUCGUAUGUACCGAAUCGGGGUUUGGGGUGGGGUUUUUGGGGAAAGUAUUAUGUUACGCCGUUCGGAUCUGCACUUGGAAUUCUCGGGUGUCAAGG,0.614
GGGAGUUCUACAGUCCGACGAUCCAAGUCCUGUGCUACACAUCGUAUGUACCGAAUCGGGGUUUGGGGAGGGGAGGGGAAAGUAUUAUGUUACGCCGUUCGGAUCUGCACUUCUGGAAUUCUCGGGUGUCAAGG,0.915

# Sample 4 — target: CCNE1, cyclin fold, Cln2 fusion (human); technique: yeast growth competition, sequencing; sample: yeast; setting: weak parent motif; relative to: not given; direction: higher = stronger binding
# Starting sequence: MICAL3 docking peptide (human); LQLRRQLSFSEDS
Change,normalised enrichment score
LQLRRQLSFEEDS [S10E],1.16
LWLRRQLSFSEDS [Q2W],0.325
LQLRRQWSFSEDS [L7W],0.256
LQLRRQLKFSEDS [S8K],0.654
LQLRRQLSWSEDS [F9W],0.22
LQLRRQLCFSEDS [S8C],0.482
LQLRRQLSFSELS [D12L],1.34
LQLRRQLRFSEDS [S8R],0.22
LQLRRQTSFSEDS [L7T],-0.0917
LQLRRQYSFSEDS [L7Y],-0.0469
LQLRRQLSFSENS [D12N],0.978
LQLRRQLSMSEDS [F9M],0.0114
LQLRRQLSFLEDS [S10L],0.52
LQLHRQLSFSEDS [R4H],0.0783
LQLRRQLSFSNDS [E11N],0.864
LNLRRQLSFSEDS [Q2N],1.33
LQLRRQLYFSEDS [S8Y],0.429
LQLTRQLSFSEDS [R4T],-0.0455
LMLRRQLSFSEDS [Q2M],1.13
LQLRRQLSVSEDS [F9V],0.175
LQLRRQLMFSEDS [S8M],0.715
LQLRRQHSFSEDS [L7H],0.398
LQLRRQLWFSEDS [S8W],0.633
LQLRRQLSCSEDS [F9C],0.239
LQLRRQLSFSEES [D12E],1.19

# Sample 5 — technique: RNA Bind-n-Seq; form: RNA; sample: in vitro; tested at: 365 nM; relative to: no-protein control; direction: higher = stronger binding
# Target: RNA binding protein fox-1 homolog 2, RRM domain, GST-SBP tag (RBFOX2, Homo sapiens, UniProt O43251-10, residues 100-194)
# Setting: natural RNA segment, single round, ends assumed
# Target sequence (chain): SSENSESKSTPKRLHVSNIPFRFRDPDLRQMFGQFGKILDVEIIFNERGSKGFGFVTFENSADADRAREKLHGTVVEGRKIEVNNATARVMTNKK
Sequence,RBNS enrichment (R)
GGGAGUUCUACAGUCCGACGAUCGCUUCCAAUGUUAAUUGAUAAUCUAUAAAUAUCAUUUUGGAAUUUGACUGGUUCACAAAUAUAUCCACAAAAUGUUUGCAUAUGGAAUAAUAGAAGCAUAUAAAACAUUGUGGAAUUCUCGGGUGCCAA,0.821
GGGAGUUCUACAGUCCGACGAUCGCACAUAUAAUUUUUUUUUAAUUUAUGAUCCAUUUUGUAUGGUCUCAAAGUUGGAUGACCUCAUUACUAAUAUUUGUUGUAAAAGUGAAACUUGUUUGCCAACCAAUAAAUGGAAUUCUCGGGUGCCAA,0.709
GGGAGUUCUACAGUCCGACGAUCCUUGCUAGGCAACCCUAAAUUGGGAAGCAAGUAGCUAGUAUAAAGGCCCUCAAUUGUAGUUGUUUCCAGCUGAAUUAAGAGCUUUAAAGUUUCUGGCAUUAGCAGAUGAUUGGAAUUCUCGGGUGCCAA,0.214
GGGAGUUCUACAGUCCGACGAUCAUGCUUUGUAUUUCUUUCUUUAAAAAAUUUACUUUAAAGAAGAAGCCACUUGAACCUUCAAUAAAGGCUGUUGCCUAAACAUGGCGUACUUCAUCUGUUCCCGCCUCUGCUGGAAUUCUCGGGUGCCAA,0.211
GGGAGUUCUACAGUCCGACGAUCCAGCCGGAGACUCAAGGUCACUGGAGACCUGUUUGACAUCAUGUCGGGCCAGACCGAUGUGGAUCACCCGCUGUGUGAGGAAUGCACAGACACUCUUUUAGACCAGCUGGUGGAAUUCUCGGGUGCCAA,0.325
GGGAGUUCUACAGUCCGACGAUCACACCCGAGUGUGGCUUUUCUCAAAGAAAGGUGAAGAAGGGGCCUCAGUUCUUACAGUGGGGACCACACUGCUGCCUGCCCCCUUCCCAACUGUGAUUCUCACACACUCAUGGAAUUCUCGGGUGCCAA,0.372
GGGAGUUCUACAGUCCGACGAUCCCAUAGUUCCUGCCUGCCAUCCUUCUGUGAGGGUCCAUUGCUGCUUGAUGGCCAUCUCUGCCUUUUAUAGUCACCUGACACUGACCUACAUCUCUCGCUUGCUUAAAGUCUGGAAUUCUCGGGUGCCAA,3.3
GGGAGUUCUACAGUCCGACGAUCAAGGCUGCACUCUAGGCUGAACCAUGCUAAAAGCCCAUGCUUAAAUAAAAAAUUAUGUCCAAAAUCUUCUGCAGCUUGCUUAUAUUCGCUCAGUUUUUACUGUGUGUGUGUGGAAUUCUCGGGUGCCAA,0.714
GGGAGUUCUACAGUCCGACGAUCCCAAACAACCAAAUGGCUGGGCAGCUUGUUGUCACGGAUAAAUGAUAUAAAAUGUAACCACUGAACAUUUGACAACUUUGUUGCAUUAUCAUUUUUAAAAAAAGAUGAAGUGGAAUUCUCGGGUGCCAA,0.6
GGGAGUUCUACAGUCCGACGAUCAUGUUGGCCAGGCUGAUUAACUCCUGACCUCAGGUGAUCCACCUUUCUCGGCCUCCCAAAGUGCUGGGAUUACGGGUGUGAGCCACCGUGCCCGGCCUGCAAACACAUUUUGGAAUUCUCGGGUGCCAA,0.44
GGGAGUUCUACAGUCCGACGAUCAUCGUGCAAGCUCUGUCAUAAUCUGCAUCUUCCCAGCAGCCUGGUACCCCAGGUUCCUGUAACUCCCUGCCUCCUCCUCUCUUCUGCUGUUCUGCUCCUCCCAGACAGAGUGGAAUUCUCGGGUGCCAA,2.24
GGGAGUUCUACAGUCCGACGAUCAAGUCAAGCAGAGACUCAAACUGAGGCUUCCUCCUCCACGAAGUCAGGAGCAGACAGAGCAAGAAUUGGCUCCAGGGCUCAAGCCUGCCCUCUGGGCAGCCUGGCGUGGGUGGAAUUCUCGGGUGCCAA,0.206

# Some of these lines once more (sample 1):
Change,relative binding score [%]
G21K,94
S171Q,84.7
T106L,99
R98V,65.3
Q51Y,36.8
V161H,14.5
I105K,-13.6
